Assay results collected from several papers.
Lines come from different studies, so protocols differ. Values joined by “and” are separate records of one study, mostly repeats; a detail may differ. ± marks the error that the study gave.

`CC(C)n1ncc2c(C(=O)NC[C@@H](C)N)cc(C3CC3)nc21` has a plasma concentration of 1070 ng/mL and 1380 ng/mL and 1140 ng/mL and 1370 ng/mL (mouse BALB/c female, plasma; intraperitoneal, 30 mg/kg, 0.5 h).
`Cc1ccc(OCC(=O)N(Cc2cccs2)c2ccn[nH]2)cc1` gave a plasma concentration of 222 nM (mouse, CD-1, male, plasma; oral, 30 mg/kg, 0.5 h).
`[2H]C([2H])(N)C([2H])([2H])NC(=O)c1cc(C2CC2)nc2c1cnn2C(C)C` has a plasma concentration of 911 ng/mL and 1110 ng/mL and 920 ng/mL and 1390 ng/mL (mouse BALB/c female, plasma; intraperitoneal, 50 mg/kg, 4 h).
The plasma concentration of `CC1(C)CC[C@@]2(CO)C(=C3C=C[C@@H]4[C@@]5(C)CC[C@H](O)[C@@](C)(CO)[C@@H]5CC[C@@]4(C)[C@]3(C)C[C@@H]2O)C1` is reported as 0 ng/mL (UHPLC-MS/MS; mouse, plasma; oral, 50 mg/kg of saikosaponin a, 1 h).
`C=CC(=O)N1CCCC(n2c(=O)c3ncccc3n(Cc3ccc(Oc4ccccc4)cc3)c2=O)C1` (centres unmarked) gave a plasma concentration of 32100 ng/mL (male BALB/c mouse, plasma; intraperitoneal, 200 mg/kg, 0.0833 h).
For `CC[C@H](C)[C@H](NC(=O)[C@H](CCCNC(=N)N)NC(=O)[C@H](Cc1c[nH]cn1)NC(=O)[C@@H](N)[C@@H](C)O)C(=O)N[C@@H](CC(C)C)C(=O)N[C@@H](CCCNC(=N)N)C(=O)N[C@@H](CCCNC(=N)N)C(=O)N[C@@H](CC(C)C)C(=O)N[C@@H](Cc1ccccc1)C(=O)N[C@@H](CC(N)=O)C(=O)N[C@@H](CC(C)C)C(=O)N[C@@H](CS)C(N)=O`, the plasma half-life was < 10 min (male C57BL/6J mouse, plasma; intraperitoneal).
For `O=c1c(-c2cnn(-c3ccc(Cl)cc3)c2)c(C(F)(F)F)oc2c(O)c(O)ccc12`, the plasma clearance was 206 mL/min/kg (mouse; intraperitoneal, 100 mg/kg, DMSO vehicle).
For `O=C1CCC(N2Cc3cc(C(=O)O)c(F)cc3C2=O)C(=O)N1` (centres unmarked), the plasma concentration was 142 ± 109 ng/mL (CD-1 mouse, male; oral, 10 mg/kg parent drug, 2 h).

A few entries again:
`C=CC(=O)N1CCCC(n2c(=O)c3ncccc3n(Cc3ccc(Oc4ccccc4)cc3)c2=O)C1` (centres unmarked) gave a plasma concentration of 32100 ng/mL (male BALB/c mouse, plasma; intraperitoneal, 200 mg/kg, 0.0833 h).
